Published values of several laboratories.
Each line is one published result; not all experiments were run side by side. ± marks the error that the study gave.

`CCCC[C@H](NC(=O)[C@@H](NC(=O)[C@H](CC(=O)O)NC(=O)[C@H](CCC(N)=O)NC(=O)[C@H](CC(C)C)NC(=O)[C@H](CC(C)C)NC(=O)[C@H](CCCN)NC(=O)[C@H](CCCNC(=N)N)NC(=O)[C@H](C)NC(=O)[C@H](CO)NC(=O)[C@H](CC(C)C)NC(=O)[C@H](CCC(N)=O)NC(=O)[C@H](CC)NC(=O)[C@H](CC(C)C)NC(=O)[C@@H](NC(=O)[C@H](CCCN)NC(=O)[C@H](CCCNC(=N)N)NC(=O)[C@H](Cc1ccc(O)cc1)NC(=O)[C@H](CO)NC(=O)[C@H](CCC(N)=O)NC(=O)[C@@H](NC(=O)[C@H](Cc1ccccc1)NC(=O)[C@@H](NC(=O)[C@H](C)NC(=O)[C@H](CC(=O)O)NC(=O)[C@@H](C)NC(=O)CCc1ccc(O)cc1)[C@@H](C)CC)[C@@H](C)O)C(C)C)[C@@H](C)CC)C(=O)N[C@@H](CC(=O)O)C(=O)N[C@H](CCCNC(=N)N)C(=O)NC` — result for “serum GH level”: 218 ± 37 ng/mL (GH release, ELISA; male Sprague-Dawley rat, anaesthetised, serum; subcutaneous, 3 µg/kg, 15 min).
For `COc1ccc2c(c1)c(CC(=O)OCC(=O)c1ccccc1)c(C)n2C(=O)c1ccc(Cl)cc1`, the writhing count was 15.2 ± 1.54 (BALB/c mice, acetic acid writhing; intraperitoneal, 10 mg/kg, 20 min count).
The DPPH scavenging of `COc1ccc(C(=O)CSc2nnc(COCCn3c([N+](=O)[O-])cnc3C)o2)cc1F` is reported as 67.76 ± 0.29% (75 µg/mL, 45 min).
`CCc1nc(-c2ccc(-c3ccc(CCC(N)(CO)CO)cc3)cc2)co1`: “maximal inhibition of PBLs” 71% (Sprague-Dawley rat, peripheral blood lymphocytes; oral, 3 mg/kg, single dose).
`NS(=O)(=O)NCCc1ccccc1F` gave an ED50 of 36 mg/kg (MES seizures; rat; oral).
`CCNC(=O)c1noc(-c2cc(C(C)C)c(O)cc2O)c1NC(=O)CCN1CCOCC1` — result for protein level: “increased” (Western blot, refers to: Hsp70; athymic nude mice, GTL-16 xenograft, tumour; dose not given, 6 h after last dose).
For `COc1ccc2c(c1)c(CC(=O)OCC(=O)OC(C)(C)C)c(C)n2C(=O)c1ccc(Cl)cc1`, “latency of nociceptive response” read 9.55 ± 0.48 s (hot plate test; BALB/c mice; 50 mg/kg, 0 min).
`Cc1cc2c(cc1C1(c3ncc(C(=O)O)cn3)CC1)C(C)(C)CCC2(C)C` — result for “log2 fold change”: 0.62 (RNA sequencing, refers to: Dlx2 mRNA; rat, brain; dose not given, 24 h, single dose; baseline: vehicle).
`Cn1ncc2cc(-c3cncc(Cl)c3N3CCC4(CCNC4=O)CC3)ccc21` — result for “number of genes altered”: 219 (gene-expression microarray; Tet-O-β-catenin intestinal organoids, mouse; 2 µM, 24 h).
`COc1cc(-c2nc3ccc(C(=O)NCCCN(C)C)cc3n2C2CCC2)cc(OC)c1OC` — result for “heterotopic ossification score”: 2.58 ± 0.9 (Faxitron; ALK2 Q207D transgenic mice; oral, 30 mg/kg twice daily, 12 days; direction not given).
`CC[C@H]1[C@@H](O)[C@@H]2[C@H](CC[C@]3(C)[C@@H]([C@H](C)CCOS(=O)(=O)[O-])CC[C@@H]23)[C@@]2(C)CC[C@@H](O)C[C@@H]12.[Na+]` gave a fibrosis area of 8.9 ± 0.6% (digital image analysis; ob/ob NASH mouse model, liver; oral, 10 mg/kg once daily, 8 weeks; baseline: area).
For `CCCC[C@H](NC(=O)[C@@H](NC(=O)[C@H](CC(=O)O)NC(=O)[C@H](CCC(N)=O)NC(=O)[C@H](CC(C)C)NC(=O)[C@H](CC(C)C)NC(=O)[C@H](CCCN)NC(=O)[C@H](CCCNC(=N)N)NC(=O)[C@H](C)NC(=O)[C@H](CO)NC(=O)[C@H](CC(C)C)NC(=O)[C@H](CCC(N)=O)NC(=O)[C@H](CC)NC(=O)[C@H](CC(C)C)NC(=O)[C@@H](NC(=O)[C@H](CCCN)NC(=O)[C@H](CCCNC(=N)N)NC(=O)[C@H](Cc1ccc(O)cc1)NC(=O)[C@H](CO)NC(=O)[C@H](CC(N)=O)NC(=O)[C@@H](NC(=O)[C@H](Cc1c(F)c(F)c(F)c(F)c1F)NC(=O)[C@@H](NC(=O)[C@H](C)NC(=O)[C@H](CC(=O)O)NC(=O)[C@@H](C)NC(=O)CCc1ccc(O)cc1)[C@@H](C)CC)[C@@H](C)O)C(C)C)[C@@H](C)CC)C(=O)N[C@@H](CO)C(=O)N[C@@H](CCCNC(=N)N)C(=O)NCCCC(N)=O`, “serum GH level” read 1250 ± 185 ng/mL (GH release, ELISA; male rat, anaesthetised, serum; intravenous, 1 µg/kg, 5 min).
`O=[N][Fe]1([N]=O)[S](CCO)[Fe]([N]=O)([N]=O)[S]1CCO`: protein level “no effect” (western blot, refers to: Iba1; aged C57BL/6JNarl mice on Western diet, hippocampus; dose not given; baseline: Western diet alone).
`CCCOC(=O)Cc1c(C)n(C(=O)c2ccc(Cl)cc2)c2ccc(OC)cc12` has an analgesia of 80% (acetic acid writhing test; BALB/c mouse; intraperitoneal, 30 mg/kg; baseline: negative control).
`COc1ccc(-c2oc3ccccc3c(=O)c2OCc2ccccc2)cc1`: “serum total cholesterol” 125 ± 4.92 mg/dL (diabetic rat; 5 mg/kg, 28 days, p-nitrophenyl β-glucoside induced).
For `COC1C=CC=C(C)C(=O)NC2=CC(=O)C(NCCN(C)C)=C(CC(C)CC(OC)C(O)C(C)C=C(C)C1OC(N)=O)C2=O` (stereo not shown), gene expression read “decreased” (RNA-seq, refers to: FGFR4, MYCN; mouse, Rh30 xenograft; dose not given).
`COc1c2c(cc3oc(CO)cc(=O)c13)O[C@H](C(C)(C)O)C2` — result for “hot plate latency”: 11.8 ± 1.3 s (analgesia; mouse; oral, 1 mg/kg, 1.5 h).
Under “serum LDL cholesterol”, `O=c1c(OCc2ccccc2)c(-c2ccc([N+](=O)[O-])cc2)oc2ccccc12` is recorded as 135 ± 4.09 mg/dL (diabetic rat; 7.5 mg/kg, 28 days, p-nitrophenyl β-glucoside induced).
For `CC[C@H](C)[C@H](NC(=O)[C@H](CC(N)=O)NC(=O)[C@H](CC(N)=O)NC(=O)[C@H](CCCNC(=N)N)NC(=O)[C@H](CC(N)=O)NC(=O)[C@H](CCCNC(=N)N)NC(=O)[C@H](CCCCN)NC(=O)[C@@H](NC(=O)[C@H](CC(N)=O)NC(=O)[C@H](CCSC)NC(=O)[C@H](CC(C)C)NC(=O)[C@H](Cc1c[nH]c2ccccc12)NC(=O)[C@H](CCC(N)=O)NC(=O)[C@@H](NC(=O)[C@H](Cc1ccccc1)NC(=O)[C@H](CC(=O)O)NC(=O)[C@H](CCC(N)=O)NC(=O)[C@H](C)NC(=O)[C@H](CCCNC(=N)N)NC(=O)[C@H](CCCNC(=N)N)NC(=O)[C@H](CO)NC(=O)[C@H](CC(=O)O)NC(=O)[C@H](CC(C)C)NC(=O)[C@H](Cc1ccc(O)cc1)NC(=O)[C@H](CCCCN)NC(=O)[C@H](CO)NC(=O)[C@H](Cc1ccc(O)cc1)NC(=O)[C@H](CC(=O)O)NC(=O)[C@H](CO)NC(=O)[C@@H](NC(=O)[C@H](Cc1ccccc1)NC(=O)[C@@H](NC(=O)CNC(=O)[C@H](CCC(=O)O)NC(=O)[C@@H](CO)NC(=O)[C@@H](N)Cc1c[nH]cn1)[C@@H](C)O)[C@@H](C)O)C(C)C)[C@@H](C)O)C(=O)N[C@@H](C)C(=O)N[C@@H](CSCC(=O)NCCOCCOCCOCCOCCC(=O)O[C@H]1CC[C@@]2(C)C(=CC[C@H]3[C@@H]4CC[C@H]([C@H](C)CCCC(C)C)[C@@]4(C)CC[C@@H]32)C1)C(N)=O`, the β-hydroxybutyrate level was 7.2 ± 0.4 mg/dL (diet-induced obese mice, plasma; subcutaneous, 1.9 µmol/kg, 14 days, chronic dosing).
For `CN(C)c1ccc(-c2oc3ccccc3c(=O)c2OCc2ccccc2)cc1`, “serum alanine aminotransferase” read 36.3 ± 2.4 IU (diabetic rat; 5 mg/kg, p-nitrophenyl β-glucoside induced).
`CCCC[C@H](NC(=O)[C@@H](NC(=O)[C@H](CC(=O)O)NC(=O)[C@H](CCC(N)=O)NC(=O)[C@H](CC(C)C)NC(=O)[C@H](CC(C)C)NC(=O)[C@H](CCCN)NC(=O)[C@H](CCCNC(=N)N)NC(=O)[C@H](C)NC(=O)[C@H](CO)NC(=O)[C@H](CC(C)C)NC(=O)[C@H](CCC(N)=O)NC(=O)[C@H](CC)NC(=O)[C@H](CC(C)C)NC(=O)[C@@H](NC(=O)[C@H](CCCN)NC(=O)[C@H](CCCNC(=N)N)NC(=O)[C@H](Cc1ccc(O)cc1)NC(=O)[C@H](CO)NC(=O)[C@H](CCC(N)=O)NC(=O)[C@@H](NC(=O)[C@H](Cc1ccccc1)NC(=O)[C@@H](NC(=O)[C@H](C)NC(=O)[C@H](CC(=O)O)NC(=O)[C@H](C)NC(=O)CCc1ccc(O)cc1)[C@@H](C)CC)[C@@H](C)O)C(C)C)[C@@H](C)CC)C(=O)N[C@@H](CC(=O)O)C(=O)N[C@@H](CCCNC(=N)N)C(=O)NCCCCC(N)=O`: “serum GH level” 138 ± 27.9 ng/mL (GH release, ELISA; male Sprague-Dawley rat, anaesthetised, serum; subcutaneous, 3 µg/kg, 30 min).
`COc1ccc(C2CC(c3ccc(C)cc3)=Nc3ccccc3S2)cc1` (stereo not shown) gave a blood glucose of 112 ± 4.45 mg/dL (rat, normal, overnight fasted; oral, 10 mg/kg, 120 min, oral glucose tolerance test, added: glucose 3 g/kg oral).

Repeated from above:
For `COc1ccc2c(c1)c(CC(=O)OCC(=O)OC(C)(C)C)c(C)n2C(=O)c1ccc(Cl)cc1`, “latency of nociceptive response” read 9.55 ± 0.48 s (hot plate test; BALB/c mice; 50 mg/kg, 0 min).
`COc1ccc(C2CC(c3ccc(C)cc3)=Nc3ccccc3S2)cc1` (stereo not shown) gave a blood glucose of 112 ± 4.45 mg/dL (rat, normal, overnight fasted; oral, 10 mg/kg, 120 min, oral glucose tolerance test, added: glucose 3 g/kg oral).
